# Published values from different studies.
# Parts stem from different laboratories: compare values within a part only.

# Sample 1
# Target: Ras GTPase-activating protein-binding protein 1, C-terminal RGG region (G3BP1, Homo sapiens, UniProt Q13283)
# Sequence of UniProt Q13283 (whole entry, looked up): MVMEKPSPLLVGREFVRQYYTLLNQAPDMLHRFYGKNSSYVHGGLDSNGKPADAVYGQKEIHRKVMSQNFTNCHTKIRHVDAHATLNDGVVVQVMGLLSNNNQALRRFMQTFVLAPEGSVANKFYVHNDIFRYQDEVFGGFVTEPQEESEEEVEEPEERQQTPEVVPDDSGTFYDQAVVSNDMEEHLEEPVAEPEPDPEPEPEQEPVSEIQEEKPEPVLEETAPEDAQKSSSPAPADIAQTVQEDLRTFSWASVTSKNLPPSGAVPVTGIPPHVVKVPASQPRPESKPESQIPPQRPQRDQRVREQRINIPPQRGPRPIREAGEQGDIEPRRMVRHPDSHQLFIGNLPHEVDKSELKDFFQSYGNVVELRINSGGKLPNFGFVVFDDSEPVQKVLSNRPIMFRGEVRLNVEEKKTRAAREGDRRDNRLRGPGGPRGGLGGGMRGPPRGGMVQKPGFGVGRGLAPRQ
# Technique: RNA Bind-n-Seq
# Molecule type: RNA
# Medium: in vitro
# Tested at: 1 µM
# Setting: whole 134-nt RNA, ends assumed
# Together with: 150 mM KCl
# Baseline: input library
# Reading: higher = stronger binding
# Shared flanks, not repeated: GGGAGUUCUACAGUCCGACGAUC … UGGAAUUCUCGGGUGUCAAGG
Oligonucleotide,log2 enrichment
CUCAAGUCCUGUGCUACACAUCGUAUGUACCGAAUCGGGAGGGUUUGGGAGGGAAAGUAUUAUGUUACGCCGUUCGGAUCUGCACUUCCA,2.07
AGUCCUGUGCUACACAUCGUAUGUACCGAAUCGGGGCCCCCGGCCCCCGGCCCCCGGAAAGUAUUAUGUUACGCCGUUCGGAUCUGCACU,-1.49
CCUGUGCUACACAUCGUAUGUACCGAAUCGGAAAAAAAGGGAAAAAAAGGGGAAAAAAAGGAAAGUAUUAUGUUACGCCGUUCGGAUCUG,-1.68
GUCCUGUGCUACACAUCGUAUGUACCGAAUCGGAAAAAAGGGAAAAAAGGAAAAAAGGGAAAGUAUUAUGUUACGCCGUUCGGAUCUGCA,-1.67
CAAGUCCUGUGCUACACAUCGUAUGUACCGAAUCGGAAAGGUUUUUUUGGAAAGGAAAGUAUUAUGUUACGCCGUUCGGAUCUGCACUUC,-2.22
UGGGAGGUGGAUUGUGUUUAUUUUUUUAGCUCAUUUCCAGGGGUGGGAAUUUUUUUUUAAUAUGUGUCAUGAAUAAAGUUGUUUUUGAAA,3.3
UAGCAAGCCAAAUUACAGCAGCAGAUGGACCUGCAGAAAAAUCACAUUUUCCGUCUGACUCAAGGACUGCAAGAAGCUCUAGAUCGGGCU,-2.21
CCUGUGCUACACAUCGUAUGUACCGAAUCGGGGUUUUUUUGGGUUUUUUUGGUUUUUUUGGAAAGUAUUAUGUUACGCCGUUCGGAUCUG,-1.3
CUCAAGUCCUGUGCUACACAUCGUAUGUACCGAAUCGGUGGUGGAAAAAAAGGAAAGUAUUAUGUUACGCCGUUCGGAUCUGCACUUCCA,-1.07
UGCUGUGCAGCGGCAUCGGCCCACUGUGGUGGAAUGUCUACGGGAAACUGAUGCCUCCCUCAGCCGGUGAGCAGUGAUAGAGGGGACAGG,-2.39

# Sample 2
# Target: Interferon regulatory factor 7, full length, phosphomimetic (IRF7, Homo sapiens, UniProt Q92985, residues 1-503, S471D/S472D/S475D/S476D/S477D/S483D/S484D/S487D)
# Technique: protein-binding microarray
# Molecule type: double-stranded DNA, one strand shown
# Medium: in vitro
# Tested at: 2200 nM top
# Setting: 60-bp whole probe
# Together with: salmon DNA 0.4 mg/ml
# Baseline: random background probes
# Reading: higher = stronger binding
# Shared flanks, not repeated: GCCTAGCAC … GTCTTGATTCGCTTGACGCTGCTG
# Target sequence (chain): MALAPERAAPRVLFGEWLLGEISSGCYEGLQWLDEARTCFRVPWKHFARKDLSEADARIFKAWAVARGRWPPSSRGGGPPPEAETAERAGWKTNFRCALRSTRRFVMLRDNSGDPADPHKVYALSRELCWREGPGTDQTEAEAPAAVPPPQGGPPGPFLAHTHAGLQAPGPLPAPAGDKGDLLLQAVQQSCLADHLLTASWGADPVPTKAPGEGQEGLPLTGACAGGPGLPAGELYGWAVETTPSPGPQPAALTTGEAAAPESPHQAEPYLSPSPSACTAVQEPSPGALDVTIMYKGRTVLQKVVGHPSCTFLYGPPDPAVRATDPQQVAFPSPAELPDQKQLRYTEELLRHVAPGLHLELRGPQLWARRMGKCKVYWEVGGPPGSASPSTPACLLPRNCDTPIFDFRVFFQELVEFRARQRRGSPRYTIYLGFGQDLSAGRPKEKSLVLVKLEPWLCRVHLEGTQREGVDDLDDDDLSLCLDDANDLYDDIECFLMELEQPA
Oligonucleotide,fitted relative affinity [z-score]
TACGGACTGCTTTTCCTGACGTGCTAG,0.873
TGATTTTGGTCTTTCTGTTTGTGCTAG,4.14
GACGCTATCGACTATCGGGACGTGCTA,0.278
GTCGATTTCGGGTATCGAGACGTGCTA,3.42
TTAGGTTTCCATTCCCTTTAGTGCTAG,4.55
GACGGTTTGGGTTTCGGGACGTGCTAG,2.33
TTAGGTATCGACACTGGGTTCGTGCTA,0.234
GACGGTCTGGGTTTCGGGACGTGCTAG,1.3
TTAGGTATCGGGTATCGGTTAGTGCTA,0.572
GACGGACTGGGGACTGGGGCCGTGCTA,-0.756
GACGATTTCGGGTATCGACACGTGCTA,2.76
GACCGTTTCGGGACTGGGGACGTGCTA,2.35
ATGAGTCTCAAAATTAGAGAGTGCTAG,-0.675
GGCGGACTGGACTTTCGGGACGTGCTA,1.59
TCATTTATATACCTGAAACTGTGCTAG,0.795
GACAGTATCCTTCTCCTGACGTGCTAG,1.4
GACGGACTGGGTAGCGGGACGTGCTAG,-1.12

# Sample 3
# Target: RNA binding protein fox-1 homolog 2, RRM domain, GST-SBP tag (RBFOX2, Homo sapiens, UniProt O43251-10, residues 100-194)
# Technique: RNA Bind-n-Seq
# Molecule type: RNA
# Medium: in vitro
# Tested at: 365 nM
# Setting: natural RNA segment, single round, ends assumed
# Baseline: no-protein control
# Reading: higher = stronger binding
# Shared flanks, not repeated: GGGAGUUCUACAGUCCGACGAUC … UGGAAUUCUCGGGUGCCAA
# Residues (chain): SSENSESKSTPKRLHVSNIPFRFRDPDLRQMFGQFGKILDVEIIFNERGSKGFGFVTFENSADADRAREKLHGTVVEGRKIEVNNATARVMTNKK
Oligonucleotide,RBNS enrichment (R)
UAGAAAGUAAAACUCCUUUUGAAGUGUCCCAAGGACUGGGUCAGUUAGAACCUGUCUGCCACUAUCUGAUGACUUACAUUGUGGUUUUCUACAAGCCACCUCAGUUAACU,0.534
CAUUAUUUUGACACUUUUAAUUUUCAUUUAACAAUGGAUUAGAAAAAUAUUUUGGUCUAGCCACUAAACAUAAUGACUGAAAAAAAUUAUUAUUAUAAAUCACCAAUAUA,0.579
UGGUCCCCUCUGCUCUGUUCCCUCCUCCUGUGGGAAGGGACUCGGAAGCUUGUCUGCCCCUCACCAGAGGUGGCCUCUGCACAUGGCACACCAGCCGGGGCUGUACCGCA,4.98
CUGUAAUGUUUGAUGUCUCAAAUGCACCGUAUUACGGUAAUAACAUGGUUUCGAAAACUUUCUGUUUUUAUUUUGUCACAGAGCUGUUGUCAUAGUUGAAAUGAUGUUUA,0.434
CUGUCCCCAUGAGCGGAGUCUGUCCUCUGCUCUUCUGCAGUCAGGUCACUGCCUACUGCCUGGGGGCUCUAGUCAUUCCAGUGGAAGACGAAUGUAACCUGCGUGGUGAU,0.401
UCUUGGGCAAUAAUGCAUAGGAGUUCUUGAUACCCCUUCAUUGAUUACUGUGUAUCAGUUCUUUGUUAGGCAUGAACGUCUUUAUUAAUCCAUCAUUCUUUUCUUCAUUC,0.401
ACCAAGGGGGCUCUUGCAUUGAGCAAUAUUGCCUUAUUUACUUUAGGGCACAAGCCAAGUCUUCAUGCCUUUGGGAAACAUCUGUCGGCCUCCCCACUCUGGUGUCUAUG,0.373
GCCCCUGAGAGGUGGGGGCCUCUCCAGGGCACAUCUGGAGUUCUUCUCCAGCUUACCCUAGGGUGACCAAGUAGGGCCUGUCACACCAGGGUGGCGCAGCUUUCUGUGUG,0.528
GGGAGGGGAGGGCACGUUCUUGACACAUGGGAACUUCGCUCAGGAGGGCCUCCCCUUCCCCUCUCCCUCAGAGUUUUCACUGCCGUCUCGUCUUUAGAAAGCUGUUUGAA,0.293
UAUAAGAAUCUGGAUUAUCUAACAUUGUUAGCCCUGUGUAUGUACAGUUCAAAAAGUUCAUUUAUAAAAGUAGUUUCCUGUUCCUAGUGUGAUGUAUCACAAAUUGUGCU,0.524
CAGACUCUGGCAGUAUUGAUGAGCCUGGCGCUGUUUGCUUUGGUGCAGCCUCCACAGUGCGCGUUCAUUUUAUCAUAUUUUGGUAUCGGUAAUUUGAUAUAUUUCAUGGU,0.278
GAUAAUUGGUGUGAGGUUGAAAUCCCUGGUUCCUGGAGGACAGACAACCUGACCUCCGACUGUCAGUUUCCCUUGACACCAUCUUCAUAGAAAUACCUGACUCCUGUACC,0.16

# Sample 4
# Target: Histone acetyltransferase KAT6A, winged helix 1, GST fusion (KAT6A, Homo sapiens, UniProt Q92794, residues 1-85)
# Technique: protein binding microarray
# Molecule type: double-stranded DNA, one strand shown
# Medium: in vitro
# Tested at: not given
# Setting: 8-mer, flanks averaged, mean of 2 arrays, mostly near background
# Baseline: not given
# Reading: higher = stronger binding
# Construct (chain): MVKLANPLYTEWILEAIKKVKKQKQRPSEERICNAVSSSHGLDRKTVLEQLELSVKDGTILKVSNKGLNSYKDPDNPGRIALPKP
Oligonucleotide,E-score
ATTGAGGA,-0.0373
CTCGCATA,0.0381
GACGACGC,0.172
CGCCCCCG,0.384
ACAATTTA,-0.165
ACCATTAT,-0.0985
CGTAGCGC,0.372
CCGTGGAG,0.25
AGTCTGAG,-0.191
ACCGGATC,0.112
CACTCAAG,-0.279
CTGTCGAC,-0.0341
CCCCGCGG,0.438
CCGCGTCA,0.33
AGGGTGAT,-0.207

# A few entries again (sample 1):
Oligonucleotide,log2 enrichment
CCUGUGCUACACAUCGUAUGUACCGAAUCGGGGUUUUUUUGGGUUUUUUUGGUUUUUUUGGAAAGUAUUAUGUUACGCCGUUCGGAUCUG,-1.3
UGGGAGGUGGAUUGUGUUUAUUUUUUUAGCUCAUUUCCAGGGGUGGGAAUUUUUUUUUAAUAUGUGUCAUGAAUAAAGUUGUUUUUGAAA,3.3
CUCAAGUCCUGUGCUACACAUCGUAUGUACCGAAUCGGGAGGGUUUGGGAGGGAAAGUAUUAUGUUACGCCGUUCGGAUCUGCACUUCCA,2.07
GUCCUGUGCUACACAUCGUAUGUACCGAAUCGGAAAAAAGGGAAAAAAGGAAAAAAGGGAAAGUAUUAUGUUACGCCGUUCGGAUCUGCA,-1.67
UAGCAAGCCAAAUUACAGCAGCAGAUGGACCUGCAGAAAAAUCACAUUUUCCGUCUGACUCAAGGACUGCAAGAAGCUCUAGAUCGGGCU,-2.21
CUCAAGUCCUGUGCUACACAUCGUAUGUACCGAAUCGGUGGUGGAAAAAAAGGAAAGUAUUAUGUUACGCCGUUCGGAUCUGCACUUCCA,-1.07
AGUCCUGUGCUACACAUCGUAUGUACCGAAUCGGGGCCCCCGGCCCCCGGCCCCCGGAAAGUAUUAUGUUACGCCGUUCGGAUCUGCACU,-1.49
UGCUGUGCAGCGGCAUCGGCCCACUGUGGUGGAAUGUCUACGGGAAACUGAUGCCUCCCUCAGCCGGUGAGCAGUGAUAGAGGGGACAGG,-2.39
CAAGUCCUGUGCUACACAUCGUAUGUACCGAAUCGGAAAGGUUUUUUUGGAAAGGAAAGUAUUAUGUUACGCCGUUCGGAUCUGCACUUC,-2.22
